Assay results of several laboratories.
Several values in a cell are separate wells, animals, samples, runs or records. Converted amounts (≈) assume the structure as drawn.
Organism: Escherichia coli

For CC[C@H](C)[C@H](NC(=O)[C@H](C)NC(=O)[C@H](CCCCN)NC(=O)[C@H](CCCNC(=N)N)NC(=O)[C@H](CCCCN)NC(=O)[C@H](CCCNC(=N)N)NC(=O)[C@H](CCCCN)NC(=O)[C@@H](N)CCCNC(=N)N)C(=O)N[C@@H](CO)C(=O)NCC(=O)N[C@@H](CO)C(=O)N[C@@H](CC(C)C)C(=O)N[C@H](C(=O)N[C@H](C(=O)N[C@@H](CC(C)C)C(=O)N[C@@H](Cc1ccccc1)C(=O)NCC(=O)N[C@@H](Cc1ccc(O)cc1)C(N)=O)[C@@H](C)O)C(C)C, the FICI was 0.28 (checkerboard; unit not given, added: rifampicin; lower means synergy).
For CC(C)C[C@H](NC(=O)[C@H](CCN)NC(=O)[C@H](CCN)NC(=O)[C@@H](Cc1ccccc1)NC(=O)[C@H](CC(C)C)NC(=O)[C@H](CCN)NC(=O)[C@H](CCN)NC(=O)[C@H](N)CCN)C(N)=O, the MBC was 128 µM (ATCC 10546; 24 h, 37 °C).
O=C/C=C/c1ccccc1: “zone of inhibition” 7 mm (MTCC 730; 1000 µg/mL, 18 h).
C[C@@H](O)[C@H]1C(=O)N2C(C(=O)O)=C(S[C@@H]3CN[C@H](C(=O)N(C)C)C3)[C@H](C)[C@H]12 — result for “MIC fold increase”: greater than 8 fold (DH5a clone with KPC-137; relative to: empty vector strain).
Under “MIC fold reduction”, C[C@@H](O)[C@H]1C(=O)N2C(C(=O)O)=C([C@H]3CCCO3)S[C@H]12 is recorded as 16 fold (checkerboard; carbapenem-resistant; concentration not given, added: anionic gold nanoparticle 8 µg/mL; relative to: MIC alone over combination).
With CC[C@H](C)[C@H](NC(=O)[C@H](CCCNC(=N)N)NC(=O)[C@H](CCCNC(=N)N)NC(=O)[C@H](CCCNC(=N)N)NC(=O)[C@H](CCCNC(=N)N)NC(=O)[C@H](CCCNC(=N)N)NC(=O)[C@@H](N)CCCNC(=N)N)C(=O)N[C@@H](CO)C(=O)N[C@@H](Cc1ccccc1)C(=O)N[C@@H](CC(C)C)C(=O)NCC(=O)N[C@@H](CO)C(=O)N[C@@H](CCCCN)C(=O)N[C@H](C(=O)N[C@H](C(=O)N[C@H](C(=O)N[C@@H](CC(C)C)C(=O)N[C@@H](CC(C)C)C(=O)N[C@@H](CCCCN)C(=O)N[C@@H](CCCNC(=N)N)C(=O)N[C@@H](CCCNC(=N)N)C(=O)N[C@@H](CCCNC(=N)N)C(=O)N[C@@H](CCCNC(=N)N)C(=O)N[C@@H](CCCNC(=N)N)C(N)=O)C(C)C)C(C)C)C(C)C the FICI was roughly 0.38 (checkerboard; unit not given, added: azithromycin; lower means synergy).
For CC(=O)c1ccc(C(=O)O)cc1, “SOS response induction” read 14% (MG1655 RecA-GFP; 100 µM, 4 h).
COc1ccc2c(ccc3oc([N+](=O)[O-])cc32)c1 gave an MIC90 of 1.5 µg/mL (≈ 6.17 µM) (REMA).
For CC[C@H](C)[C@H](NC(=O)[C@H](Cc1c[nH]c2ccccc12)NC(=O)[C@@H](NC(=O)[C@H](Cc1ccc(O)cc1)NC(=O)[C@@H]1CCCN1C(=O)[C@@H](NC(=O)[C@H](C)N)[C@@H](C)CC)[C@@H](C)CC)C(=O)N[C@@H](Cc1ccc(O)cc1)C(=O)N[C@@H](CCCNC(=N)N)C(=O)N[C@@H](CC(C)C)C(=O)N[C@@H](CC(C)C)C(=O)N[C@@H](CCCNC(=N)N)C(=O)N[C@@H](CCCCN)C(=O)NCC(N)=O, the MBC was greater than 15 µM (D31; 18 h, 37 °C).
CC[C@H](C)[C@H](NC(=O)[C@H](C)N)C(=O)N[C@@H](CO)C(=O)NCC(=O)N[C@@H](CO)C(=O)N[C@@H](CC(C)C)C(=O)N[C@H](C(=O)N[C@H](C(=O)N[C@@H](CC(C)C)C(=O)N[C@@H](Cc1ccccc1)C(=O)NCC(=O)N[C@@H](Cc1ccc(O)cc1)C(=O)N[C@@H](CCCNC(=N)N)C(=O)N[C@@H](CCCCN)C(=O)N[C@@H](CCCNC(=N)N)C(=O)N[C@@H](CCCCN)C(=O)N[C@@H](CCCNC(=N)N)C(=O)N[C@@H](CCCCN)C(N)=O)[C@@H](C)O)C(C)C has an FICI of 0.5 (checkerboard; unit not given, added: azithromycin; lower means synergy).
For CCCCCCCCCCCC[N+](C)(C)Cc1ccccc1, the IC50 was 21 µM (bacterial survival, bioluminescence; bioluminescent; 1 h, dark).
The MIC90 of CCc1c([N+](=O)[O-])oc2ccc3ccccc3c12 is reported as 1 µg/mL (≈ 4.15 µM) (REMA).
CC(C)[C@@H]1NC(=O)CNC(=O)[C@H](CC(N)=O)NC(=O)[C@H](CCCNC(=N)N)NC(=O)[C@H](Cc2ccc(O)cc2)NC(=O)[C@H](C(C)C)NC(=O)[C@@H](NC(=O)[C@@H](NC(=O)[C@H](CC(N)=O)NC(=O)[C@H](Cc2c[nH]c3ccccc23)NC(=O)[C@H](C)NC(=O)[C@H](Cc2ccccc2)NC(=O)CN)C(C)C)CSSC[C@@H](C(=O)N[C@@H](Cc2c[nH]cn2)C(=O)N[C@@H](CCCNC(=N)N)C(=O)N[C@@H](CCCNC(=N)N)C(=O)N[C@@H](C)C(=O)N[C@@H](CC(N)=O)C(N)=O)NC(=O)[C@H](C(C)C)NC(=O)[C@H](CCCNC(=N)N)NC1=O gave an EC50 of 1.36 µM (bactericidal activity; CGMCC 1.9; 24 h).
O=C(O)c1cccc(C(=O)O)n1: “fold MIC reduction” 64 (VIM-2 producer; 32 µg/mL, added: meropenem; relative to: meropenem alone).
CCCCCCCCCC(=O)N[C@@H](Cc1c[nH]c2ccccc12)C(=O)N[C@H](CC(N)=O)C(=O)N[C@@H](CC(=O)O)C(=O)N[C@@H]1C(=O)NCC(=O)N[C@@H](CCCN)C(=O)N[C@@H](CC(=O)O)C(=O)N[C@H](C)C(=O)N[C@@H](CC(=O)O)C(=O)NCC(=O)N[C@H](CO)C(=O)N[C@@H]([C@H](C)CC(=O)O)C(=O)N[C@@H](CC(=O)c2ccccc2N)C(=O)O[C@@H]1C — result for “MIC activity class”: “inactive” (broth dilution; drug-resistant; concentration not given).
C[C@@H](O)[C@H]1C(=O)N2C(C(=O)O)=C(S[C@@H]3CN[C@H](C(=O)N(C)C)C3)[C@H](C)[C@H]12: “log10 CFU difference” -0.14 and -0.19 and -0.47 (neutropenic rat, lung infection; intravenous, 15 mg/kg every 12 h, first study).
For O=[N+]([O-])c1cc2c(ccc3cc(Br)ccc32)o1, the MIC90 was greater than 32 µg/mL (REMA).
Under “MIC fold increase”, C[C@@H](O)[C@H]1C(=O)N2C(C(=O)O)=C(SCCN=CN)C[C@H]12 is recorded as 16 fold (DH5a clone with KPC-136; relative to: empty vector strain).
Cc1cc(-c2cn[nH]c2-c2cccc(OCc3cccc(C#N)c3)c2)cc(C)n1 has an MIC50 of 1 to 2 µg/mL (≈ 2.63 to 5.26 µM) (multidrug-resistant clinical isolates).
The MIC90 of Nc1c([N+](=O)[O-])oc2ccc3ccccc3c12 is reported as greater than 32 µg/mL (REMA).
With CC(C)[C@@H]1NC(=O)[C@H](C)OC(=O)[C@@H](C(C)C)NC(=O)[C@@H](C(C)C)OC(=O)[C@H](C(C)C)NC(=O)[C@H](C)OC(=O)[C@@H](C(C)C)NC(=O)[C@@H](C(C)C)OC(=O)[C@H](C(C)C)NC(=O)[C@H](C)OC(=O)[C@@H](C(C)C)NC(=O)[C@@H](C(C)C)OC1=O the FIC index was 1 (checkerboard; tetracycline-resistant; 20 µM, added: tetracycline).
For CCn1cc(C(=O)O)c(=O)c2cc(F)c(N3CCNCC3)cc21, “generations to resistance” read 17 generations (ATCC 25922).
For CC[C@@H](C)[C@@H](N)C(=O)N[C@@H](C(=O)N[C@H](Cc1ccc(O)cc1)C(=O)N[C@@H](C(=O)N[C@H](CCCNC(=N)N)C(=O)N[C@H](CC(C)C)C(=O)N[C@H](CO)C(=O)N[C@H](CCCNC(=N)N)C(=O)N[C@@H](C(=O)N[C@H](CCCNC(=N)N)C(=O)N[C@H](Cc1c[nH]cn1)C(=O)N[C@H](CCCNC(=N)N)C(=O)N[C@H](C)C(=O)N[C@H](CCCNC(=N)N)C(=O)N[C@H](CCCNC(=N)N)C(N)=O)[C@H](C)CC)[C@H](C)CC)[C@H](C)CC, the MBC was greater than 64 µg/mL (ATCC 25922, 100% human serum; 20 h, 37 °C).
For CC[C@H](C)[C@H](NC(=O)[C@H](CCCNC(=N)N)NC(=O)[C@H](CCCNC(=N)N)NC(=O)[C@H](CCCNC(=N)N)NC(=O)[C@H](CCCNC(=N)N)NC(=O)[C@H](CCCNC(=N)N)NC(=O)[C@@H](N)CCCNC(=N)N)C(=O)N[C@@H](CO)C(=O)N[C@@H](Cc1ccccc1)C(=O)N[C@@H](CC(C)C)C(=O)NCC(=O)N[C@@H](CO)C(=O)N[C@@H](CCCCN)C(=O)N[C@@H](CCCCN)C(=O)N[C@@H](CCCCN)C(=O)N[C@@H](CCCCN)C(=O)N[C@@H](CCCCN)C(=O)N[C@@H](CC(C)C)C(=O)N[C@@H](CC(C)C)C(=O)N[C@@H](CCCCN)C(=O)N[C@@H](CCCNC(=N)N)C(N)=O, the FICI was 0.5 (checkerboard; unit not given, added: azithromycin; lower means synergy).
For CC[C@@H](C)[C@@H](N)C(=O)N[C@@H](C(=O)N[C@H](Cc1ccc(O)cc1)C(=O)N[C@@H](C(=O)N[C@H](CCN)C(=O)N[C@H](CC(C)C)C(=O)N[C@H](CO)C(=O)N[C@H](CCN)C(=O)N[C@@H](C(=O)N[C@H](CCN)C(=O)N[C@H](Cc1c[nH]cn1)C(=O)N[C@H](CCN)C(=O)N[C@H](C)C(=O)N[C@H](CCN)C(=O)N[C@H](CCN)C(N)=O)[C@H](C)CC)[C@H](C)CC)[C@H](C)CC, the biofilm reduction was 50% (crystal violet; ATCC 25922; 16 µg/mL, 24 h, 37 °C, established biofilm; relative to: untreated).
For Cc1c([N+](=O)[O-])oc2ccc3ccccc3c12, the MIC90 was 2 µg/mL (≈ 8.8 µM) (REMA).

Repeated from above:
With CC[C@H](C)[C@H](NC(=O)[C@H](CCCNC(=N)N)NC(=O)[C@H](CCCNC(=N)N)NC(=O)[C@H](CCCNC(=N)N)NC(=O)[C@H](CCCNC(=N)N)NC(=O)[C@H](CCCNC(=N)N)NC(=O)[C@@H](N)CCCNC(=N)N)C(=O)N[C@@H](CO)C(=O)N[C@@H](Cc1ccccc1)C(=O)N[C@@H](CC(C)C)C(=O)NCC(=O)N[C@@H](CO)C(=O)N[C@@H](CCCCN)C(=O)N[C@H](C(=O)N[C@H](C(=O)N[C@H](C(=O)N[C@@H](CC(C)C)C(=O)N[C@@H](CC(C)C)C(=O)N[C@@H](CCCCN)C(=O)N[C@@H](CCCNC(=N)N)C(=O)N[C@@H](CCCNC(=N)N)C(=O)N[C@@H](CCCNC(=N)N)C(=O)N[C@@H](CCCNC(=N)N)C(=O)N[C@@H](CCCNC(=N)N)C(N)=O)C(C)C)C(C)C)C(C)C the FICI was roughly 0.38 (checkerboard; unit not given, added: azithromycin; lower means synergy).
For CCn1cc(C(=O)O)c(=O)c2cc(F)c(N3CCNCC3)cc21, “generations to resistance” read 17 generations (ATCC 25922).
COc1ccc2c(ccc3oc([N+](=O)[O-])cc32)c1 gave an MIC90 of 1.5 µg/mL (≈ 6.17 µM) (REMA).
For Cc1c([N+](=O)[O-])oc2ccc3ccccc3c12, the MIC90 was 2 µg/mL (≈ 8.8 µM) (REMA).
